Measurements from different studies.
Each line is one published result; not all experiments were run side by side. ± gives the spread as reported.

SMILES	test	test system	setting	how to read	measurement	value
N=C(N)NCCC[C@@H]1NC(=O)[C@H](CCCCNC(=O)CC[C@H](NC(=O)CCOCCOCCOCCOCCNC(=O)CC[C@H](NC(=O)CN2CCN(CC(=O)O)CCN(CC(=O)O)CCN(CC(=O)O)CC2)C(=O)NCCOCCOCCOCCOCCC(=O)N[C@@H](CCC(=O)NCCCC[C@@H]2NC(=O)[C@@H](Cc3ccccc3)NC(=O)[C@H](CC(=O)O)NC(=O)CNC(=O)[C@H](CCCNC(=N)N)NC2=O)C(=O)NCCCC[C@@H]2NC(=O)[C@@H](Cc3ccccc3)NC(=O)[C@H](CC(=O)O)NC(=O)CNC(=O)[C@H](CCCNC(=N)N)NC2=O)C(=O)NCCCC[C@@H]2NC(=O)[C@@H](Cc3ccccc3)NC(=O)[C@H](CC(=O)O)NC(=O)CNC(=O)[C@H](CCCNC(=N)N)NC2=O)NC(=O)[C@@H](Cc2ccccc2)NC(=O)[C@H](CC(=O)O)NC(=O)CNC1=O [indium-111 labelled]	–	female athymic nude mice, heart	intravenous, 3 µCi, 24 h, U-87 MG glioma xenograft	–	tissue uptake	0.31 ± 0.12 %ID/g
CC(C)C[C@@H]1NC(=O)[C@H](C(C)C)NC(=O)[C@H](CO)NC(=O)CNC(=O)CNC(=O)[C@H](CCCNC(=N)N)NC(=O)[C@@H]2CCCN2C(=O)[C@@H](NC(=O)CC[C@H](NC(=O)c2ccc(N(C)Cc3cnc4nc(N)nc(N)c4n3)cc2)C(=O)O)C(C)(C)SSC[C@@H](C(=O)O)NC(=O)CNC(=O)[C@H]([C@@H](C)O)NC(=O)[C@H](C(C)C)NC1=O	HPLC	HCl buffer	pH 1.0, 70 °C	–	degradation rate constant	0.525 h⁻¹
N=C(N)NCCC[C@@H]1NC(=O)[C@H](CCCCNC(=O)CNC(=O)CNC(=O)CNC(=O)CC[C@H](NC(=O)c2ccc(NN=Cc3ccccc3S(=O)(=O)O)nc2)C(=O)NCC(=O)NCC(=O)NCC(=O)NCCCC[C@@H]2NC(=O)[C@@H](Cc3ccccc3)NC(=O)[C@H](CC(=O)O)NC(=O)CNC(=O)[C@H](CCCNC(=N)N)NC2=O)NC(=O)[C@@H](Cc2ccccc2)NC(=O)[C@H](CC(=O)O)NC(=O)CNC1=O [technetium-99m labelled]	gamma counting	female athymic nu/nu mice, MDA-MB-435 breast cancer xenograft, tumour	intravenous, 120 min post-injection	–	tumour uptake	9.11 ± 1.83 %ID/g
CCCC[C@H](NC(=O)CNC(=O)CNC(=O)c1ccc(NN)nc1)C(=O)N[C@H]1CC(=O)NCCCC[C@@H](C(N)=O)NC(=O)[C@H](Cc2c[nH]c3ccccc23)NC(=O)[C@H](CCCNC(=N)N)NC(=O)[C@@H](Cc2ccccc2)NC(=O)[C@H](Cc2c[nH]cn2)NC1=O [technetium-99m labelled]	–	C57 mouse, B16/F1 melanoma-bearing	intravenous, 2 h	relative to: tumour over blood	tissue uptake ratio	83.2
CCCCCCCCCCCCCCCCCC(=O)OC[C@H](NC(=O)[C@H](Cc1c[nH]c2ccccc12)NC(=O)[C@H](Cc1c[nH]cn1)NC(=O)[C@@H]1CCC(=O)N1)C(=O)N[C@@H](Cc1ccc(O)cc1)C(=O)N[C@H](CC(C)C)C(=O)N[C@@H](CC(C)C)C(=O)N[C@@H](CCCNC(=N)N)C(=O)N1CCC[C@H]1C(=O)NCC	HPLC	human plasma	1 mg/mL, 37 °C, 50% degraded	–	time to degradation	4540 min
CC(C)C[C@H](NC(=O)[C@@H]1CCCN1C(=O)[C@H](CCCCN)NC(=O)[C@@H](N)CO)C(=O)N1CCC[C@H]1C(=O)N[C@@H](CCC(=O)O)C(=O)N[C@H](C(=O)N[C@H](C(=O)N[C@@H](CC(=O)O)C(=O)N[C@@H](CCC(=O)O)C(=O)N[C@@H](Cc1ccc(O)cc1)C(=O)N[C@@H](Cc1cn(CCOCCOCCOCCNC(=O)CCc2ccc(O)c(CN(CCN(CC(=O)O)Cc3cc(CCC(=O)NCCCC[C@H](NC(=O)N[C@@H](CCC(=O)O)C(=O)O)C(=O)O)ccc3O)CC(=O)O)c2)nn1)C(=O)O)[C@@H](C)O)C(C)C [gallium-68 labelled]	–	NMRI nu/nu mouse, LNCaP xenograft, submandibular gland	10 MBq, high molar activity	–	SUV	0.09 g/g
N=C(N)NCCC[C@@H]1NC(=O)[C@H](CCCCNC(=O)CNC(=O)CNC(=O)CNC(=O)CC[C@H](NC(=O)CCOCCOCCOCCOCCNC(=O)CC[C@H](NC(=O)CN2CCN(CC(=O)O)CCN(CC(=O)O)CCN(CC(=O)O)CC2)C(=O)NCCOCCOCCOCCOCCC(=O)N[C@@H](CCC(=O)NCC(=O)NCC(=O)NCC(=O)NCCCC[C@@H]2NC(=O)[C@@H](Cc3ccccc3)NC(=O)[C@H](CC(=O)O)NC(=O)CNC(=O)[C@H](CCCNC(=N)N)NC2=O)C(=O)NCC(=O)NCC(=O)NCC(=O)NCCCC[C@@H]2NC(=O)[C@@H](Cc3ccccc3)NC(=O)[C@H](CC(=O)O)NC(=O)CNC(=O)[C@H](CCCNC(=N)N)NC2=O)C(=O)NCC(=O)NCC(=O)NCC(=O)NCCCC[C@@H]2NC(=O)[C@@H](Cc3ccccc3)NC(=O)[C@H](CC(=O)O)NC(=O)CNC(=O)[C@H](CCCNC(=N)N)NC2=O)NC(=O)[C@@H](Cc2ccccc2)NC(=O)[C@H](CC(=O)O)NC(=O)CNC1=O [indium-111 labelled]	–	athymic nude mice, female, U-87 MG glioma xenograft, tumour and kidney	intravenous, 4 h	relative to: tumour over kidney	tumour to tissue ratio	2.17 ± 0.48
CCCC[C@H](NC(=O)CCCCCCCNC(=O)c1ccc(NN)nc1)C(=O)N[C@H]1CC(=O)NCCCC[C@@H](C(N)=O)NC(=O)[C@H](Cc2c[nH]c3ccccc23)NC(=O)[C@H](CCCNC(=N)N)NC(=O)[C@@H](Cc2ccccc2)NC(=O)[C@H](Cc2c[nH]cn2)NC1=O [technetium-99m labelled]	–	C57 mouse, B16/F1 melanoma, liver	intravenous, 24 h	–	uptake	0.36 ± 0.01 %ID/g
N=C(N)NCCC[C@@H]1NC(=O)[C@H](CCCCNC(=O)CC[C@H](NC(=O)CCOCCOCCOCCOCCNC(=O)CN2CCN(CC(=O)O)CCN(CC(=O)O)CCN(CC(=O)O)CC2)C(=O)NCCCC[C@@H]2NC(=O)[C@@H](Cc3ccccc3)NC(=O)[C@H](CC(=O)O)NC(=O)CNC(=O)[C@H](CCCNC(=N)N)NC2=O)NC(=O)[C@@H](Cc2ccccc2)NC(=O)[C@H](CC(=O)O)NC(=O)CNC1=O [indium-111 labelled]	–	athymic nude mice, female, U-87 MG glioma xenograft, bone	intravenous, 3 µCi, 24 h	–	tissue uptake	0.79 ± 0.11 %ID/g
CSCC[C@H](NC(=O)[C@H](CC(C)C)NC(=O)[C@H](Cc1c[nH]cn1)NC(=O)CNC(=O)[C@@H](NC(=O)[C@H](C)NC(=O)[C@H](Cc1c[nH]c2ccccc12)NC(=O)[C@H](CCC(N)=O)NC(=O)CCCCCNC(=O)CNC(=O)CNC(=O)CNC(=O)CSC(C)=O)C(C)C)C(N)=O [technetium-99m labelled]	–	nude mouse, PC-3 xenograft, bone	30 min, added: excess unlabelled conjugate	–	tissue uptake	0.78 ± 0.13 %ID/g

Repeated from above:
SMILES	test	test system	setting	how to read	measurement	value
N=C(N)NCCC[C@@H]1NC(=O)[C@H](CCCCNC(=O)CNC(=O)CNC(=O)CNC(=O)CC[C@H](NC(=O)CCOCCOCCOCCOCCNC(=O)CC[C@H](NC(=O)CN2CCN(CC(=O)O)CCN(CC(=O)O)CCN(CC(=O)O)CC2)C(=O)NCCOCCOCCOCCOCCC(=O)N[C@@H](CCC(=O)NCC(=O)NCC(=O)NCC(=O)NCCCC[C@@H]2NC(=O)[C@@H](Cc3ccccc3)NC(=O)[C@H](CC(=O)O)NC(=O)CNC(=O)[C@H](CCCNC(=N)N)NC2=O)C(=O)NCC(=O)NCC(=O)NCC(=O)NCCCC[C@@H]2NC(=O)[C@@H](Cc3ccccc3)NC(=O)[C@H](CC(=O)O)NC(=O)CNC(=O)[C@H](CCCNC(=N)N)NC2=O)C(=O)NCC(=O)NCC(=O)NCC(=O)NCCCC[C@@H]2NC(=O)[C@@H](Cc3ccccc3)NC(=O)[C@H](CC(=O)O)NC(=O)CNC(=O)[C@H](CCCNC(=N)N)NC2=O)NC(=O)[C@@H](Cc2ccccc2)NC(=O)[C@H](CC(=O)O)NC(=O)CNC1=O [indium-111 labelled]	–	athymic nude mice, female, U-87 MG glioma xenograft, tumour and kidney	intravenous, 4 h	relative to: tumour over kidney	tumour to tissue ratio	2.17 ± 0.48
